{"data": "Assay results of several laboratories", "note": "Lines come from different studies, so protocols differ."}
{"Compound": "CO/N=C(\\C(=O)N[C@@H]1C(=O)N2C(C(=O)O)=C(CSc3nc(=O)c(O)nn3C)CS[C@H]12)c1csc(N)n1", "organism": "Neisseria gonorrhoeae", "assay": "broth microdilution", "system": "WHO M", "setting": "1.5 h", "MIC": "0.25 µg/mL"}
{"Compound": "OC(Cn1cncn1)(Cn1cncn1)c1ccc(F)cc1F", "organism": "Candidozyma auris", "assay": "inhibitor", "system": "279", "setting": "24 h", "MIC": "128 µg/mL"}
{"Compound": "CN[C@H](CC(C)C)C(=O)N[C@H]1C(=O)N[C@@H](CC(N)=O)C(=O)N[C@H]2C(=O)N[C@H]3C(=O)N[C@H](C(=O)N[C@H](C(=O)O)c4cc(O)cc(O)c4-c4cc3ccc4O)[C@H](O)c3ccc(c(Cl)c3)Oc3cc2cc(c3O[C@@H]2O[C@H](CO)[C@@H](O)[C@H](O)[C@H]2O[C@H]2C[C@](C)(N)[C@H](O)[C@H](C)O2)Oc2ccc(cc2Cl)[C@H]1O", "organism": "Staphylococcus epidermidis", "system": "MRSE-8, methicillin-resistant", "MIC": "0.5 µg/mL"}
{"Compound": "CC(C)C[C@@H]1NC(=O)[C@@H](Cc2ccccc2)NC(=O)[C@H](CCN)NC(=O)[C@@H](NC(=O)[C@H](CCN)NC(=O)[C@@H](N)[C@@H](C)O)CCNC(=O)[C@H]([C@@H](C)O)NC(=O)[C@H](CCN)NC(=O)[C@H](CCN)NC1=O", "organism": "Escherichia coli", "system": "ATCC 25922", "setting": "in combination, checkerboard, with: rifampicin", "MIC": "6.25 µg/mL"}
{"Compound": "CC1(C)SC2C(NC(=O)C(NC(=O)C3=C(O)C(Cc4ccco4)NC3=O)c3ccccc3)C(=O)N2C1C(=O)O (centres unmarked)", "organism": "Escherichia coli", "assay": "broth microdilution", "system": "BW25113 wild type", "setting": "18 h", "MIC": "6.25 µg/mL"}
{"Compound": "Cc1cc(-c2cn[nH]c2-c2cccc(OCc3cccc(C#N)c3)c2)cc(C)n1", "organism": "Salmonella Typhimurium", "assay": "broth microdilution", "system": "ATCC 14028", "MIC": "1 µg/mL"}
{"Compound": "NC[C@H]1O[C@H](O[C@H]2[C@H](O)[C@@H](O[C@H]3O[C@H](CO)[C@@H](O)[C@H](N)[C@H]3O)[C@H](N)C[C@@H]2N)[C@H](O)[C@@H](O)[C@@H]1O", "organism": "Micrococcus luteus", "assay": "broth microdilution", "system": "ATCC 4698", "MIC": "3.43 µM"}
{"Compound": "CC1(C)S[C@@H]2[C@H](NC(=O)[C@H](N)c3ccccc3)C(=O)N2[C@H]1C(=O)O", "organism": "Pseudomonas aeruginosa", "system": "clinical isolate RKI-No_612/16", "MIC": "> 16 µg/mL"}
{"Compound": "CC1(C)S[C@@H]2[C@H](NC(=O)Cc3ccccc3)C(=O)N2[C@H]1C(=O)O", "organism": "Neisseria gonorrhoeae", "assay": "broth microdilution", "system": "WHO N", "setting": "1.5 h", "MIC": "64 µg/mL"}
{"Compound": "Cc1c(CN(C)C(=O)/C=C/c2cnc3c(c2)CCC(=O)N3)oc2ccccc12", "organism": "Escherichia coli", "assay": "broth microdilution", "system": "AR-0058", "MIC": "32 µg/mL"}
{"Compound": "C[C@H]1COc2c(N3CCN(C)CC3)c(F)cc3c(=O)c(C(=O)O)cn1c23", "organism": "Enterobacter aerogenes", "assay": "agar dilution", "system": "ATCC 13048 susceptible", "MIC": "0.06 µg/mL"}
{"Compound": "CC[C@H]1OC(=O)[C@H](C)[C@@H](O[C@H]2C[C@@](C)(OC)[C@@H](O)[C@H](C)O2)[C@H](C)[C@@H](O[C@@H]2O[C@H](C)C[C@H](N(C)C)[C@H]2O)[C@](C)(O)C[C@@H](C)CN(C)[C@H](C)[C@@H](O)[C@]1(C)O", "organism": "Neisseria gonorrhoeae", "assay": "broth microdilution", "system": "WHO G", "setting": "1.5 h", "MIC": "0.0625 µg/mL"}
{"Compound": "OC(Cn1cncn1)(Cn1cncn1)c1ccc(F)cc1F", "organism": "Candidozyma auris", "assay": "broth microdilution", "system": "CBS 15108", "setting": "24 h", "MIC": "> 400 µM"}
{"Compound": "N#Cc1ccc2[nH]c(CNCC34CC5CC(CC(C5)C3)C4)nc2c1", "organism": "Enterobacter aerogenes", "system": "ATCC 35029", "MIC": "> 128 µg/mL"}
{"Compound": "N=C(N)c1cccc(OCc2ccc(COc3cccc(C(=N)N)c3)cc2)c1", "organism": "Escherichia coli", "system": "BW25113", "setting": "compound alone, rifampicin checkerboard", "MIC": "> 200 µg/mL"}
{"Compound": "O=C(NC1CCCCC1)C(CCc1ccccc1)N(CCc1c[nH]cn1)C(=O)c1ccccc1 (centres unmarked)", "organism": "Micrococcus luteus", "system": "DSM 1790", "MIC": "128 µM"}
{"Compound": "c1ccc(OCCn2c(CNCC34CC5CC(CC(C5)C3)C4)nc3ccccc32)cc1", "organism": "Enterobacter aerogenes", "system": "ATCC 35029", "MIC": "> 128 µg/mL"}
{"Compound": "CCCCCOc1ccc(-c2ccc(-c3ccc(C(=O)N[C@H]4C[C@@H](O)[C@@H](OCC[N+](C)(C)C)NC(=O)[C@@H]5[C@@H](O)[C@@H](C)CN5C(=O)[C@H]([C@@H](C)O)NC(=O)[C@H]([C@H](O)[C@@H](O)c5ccc(O)cc5)NC(=O)[C@@H]5C[C@@H](O)CN5C(=O)[C@H]([C@@H](C)O)NC4=O)cc3)cc2)cc1", "organism": "Candida glabrata", "assay": "CLSI broth microdilution", "system": "35315", "MIC": "0.25 µg/mL"}
{"Compound": "CC(C)(CN)CNCc1nc2ccccc2n1CCOc1ccccc1", "organism": "Enterobacter aerogenes", "system": "ATCC 35029", "MIC": "16 µg/mL"}
{"Compound": "CC1(C)SC2C(NC(=O)C(NC(=O)C3=C(O)CNC3=O)c3ccccc3)C(=O)N2C1C(=O)O (centres unmarked)", "organism": "Escherichia coli", "assay": "broth microdilution", "system": "BW25113 wild type", "setting": "18 h", "MIC": "50 µg/mL"}
{"Compound": "CC[C@H](C)[C@H](NC(=O)[C@H](CCCCN)NC(=O)[C@H](CCC(=O)O)NC(=O)[C@H](CCCCN)NC(=O)[C@H](CO)NC(=O)[C@H](CCCCN)NC(=O)[C@H](CCCNC(=N)N)NC(=O)[C@H](Cc1ccccc1)NC(=O)[C@H](Cc1ccccc1)NC(=O)[C@H](CC(=O)O)NC(=O)CNC(=O)[C@H](CC(C)C)NC(=O)[C@@H](N)CC(C)C)C(=O)NCC(=O)N[C@@H](CCCCN)C(=O)N[C@@H](CCC(=O)O)C(=O)N[C@@H](Cc1ccccc1)C(=O)N[C@@H](CCCCN)C(=O)N[C@@H](CCCNC(=N)N)C(=O)N[C@H](C(=O)N[C@H](C(=O)N[C@@H](CCC(N)=O)C(=O)N[C@@H](CCCNC(=N)N)C(=O)N[C@H](C(=O)N[C@@H](CCCCN)C(=O)N[C@@H](CC(=O)O)C(=O)N[C@@H](Cc1ccccc1)C(=O)N[C@@H](CC(C)C)C(=O)N[C@@H](CCCNC(=N)N)C(=O)N[C@@H](CC(N)=O)C(=O)N[C@@H](CC(C)C)C(=O)N[C@H](C(=O)N1CCC[C@H]1C(=O)N[C@@H](CCCNC(=N)N)C(=O)N[C@H](C(=O)N[C@@H](CCC(=O)O)C(=O)N[C@@H](CO)C(=O)O)[C@@H](C)O)C(C)C)[C@@H](C)CC)C(C)C)[C@@H](C)CC", "organism": "Micrococcus luteus", "assay": "broth microdilution", "system": "ATCC 4698", "setting": "43 h, 37 °C, cation-adjusted Mueller-Hinton broth", "MIC": "4 µg/mL"}
{"Compound": "N=C(N)c1ccc(OCc2ccc(-c3ccccc3)cc2COc2ccc(C(=N)N)cc2)cc1", "organism": "Escherichia coli", "system": "BW25113", "setting": "in combination, lowest-FICI combination, with: vancomycin", "MIC": "100 µg/mL"}
{"Compound": "CC1NC(=O)C(C(=O)NC(C(=O)NC2C(=O)N3C2SC(C)(C)C3C(=O)O)c2ccccc2)=C1O (centres unmarked)", "organism": "Escherichia coli", "assay": "broth microdilution", "system": "ATCC 25922 wild type", "setting": "no clavulanic acid", "MIC": "25 µg/mL"}
{"Compound": "CC[C@H]1OC(=O)[C@H](C)[C@@H](O[C@H]2C[C@@](C)(OC)[C@@H](O)[C@H](C)O2)[C@H](C)[C@@H](O[C@@H]2O[C@H](C)C[C@H](N(C)C)[C@H]2O)[C@](C)(O)C[C@@H](C)CN(C)[C@H](C)[C@@H](O)[C@]1(C)O", "organism": "Neisseria gonorrhoeae", "system": "ATCC 49226", "MIC": "0.25 µg/mL"}
{"Compound": "CC1(C)SC2C(NC(=O)C(NC(=O)C3=C(O)C4CCCN4C3=O)c3ccccc3)C(=O)N2C1C(=O)O (centres unmarked)", "organism": "Escherichia coli", "assay": "broth microdilution", "system": "ATCC 25922 wild type", "setting": "with: clavulanic acid 6 µg/mL", "MIC": "12.5 µg/mL"}
{"Compound": "CC[C@H](C)[C@H](NC(=O)[C@H](CCCCN)NC(=O)[C@H](CCC(=O)O)NC(=O)CNC(=O)CNC(=O)[C@H](CCCCN)NC(=O)[C@H](CCCNC(=N)N)NC(=O)[C@H](CC(C)C)NC(=O)[C@H](CC(C)C)NC(=O)CN)C(=O)NCC(=O)N[C@@H](CCC(=O)O)C(=O)N[C@@H](CCCCN)C(=O)N[C@@H](CC(C)C)C(=O)N[C@@H](CCCCN)C(=O)N[C@@H](CCCCN)C(=O)N[C@H](C(=O)NCC(=O)N[C@@H](CCC(N)=O)C(=O)N[C@@H](CCCCN)C(=O)N[C@H](C(=O)N[C@@H](CCCCN)C(=O)N[C@@H](CC(N)=O)C(=O)N[C@@H](Cc1ccccc1)C(=O)N[C@@H](Cc1ccccc1)C(=O)N[C@@H](CCC(N)=O)C(=O)N[C@@H](CCCCN)C(=O)N[C@@H](CC(C)C)C(=O)N[C@H](C(=O)N1CCC[C@H]1C(=O)N[C@@H](CCC(N)=O)C(=O)N1CCC[C@H]1C(=O)N[C@@H](CCC(=O)O)C(=O)N[C@@H](CCC(N)=O)C(=O)O)C(C)C)[C@@H](C)CC)[C@@H](C)CC", "organism": "Micrococcus luteus", "assay": "broth microdilution", "system": "ATCC 4698", "setting": "43 h, 37 °C, cation-adjusted Mueller-Hinton broth", "MIC": "8 µg/mL"}
{"note": "Repeated from above:"}
{"Compound": "CC[C@H]1OC(=O)[C@H](C)[C@@H](O[C@H]2C[C@@](C)(OC)[C@@H](O)[C@H](C)O2)[C@H](C)[C@@H](O[C@@H]2O[C@H](C)C[C@H](N(C)C)[C@H]2O)[C@](C)(O)C[C@@H](C)CN(C)[C@H](C)[C@@H](O)[C@]1(C)O", "organism": "Neisseria gonorrhoeae", "assay": "broth microdilution", "system": "WHO G", "setting": "1.5 h", "MIC": "0.0625 µg/mL"}
{"Compound": "OC(Cn1cncn1)(Cn1cncn1)c1ccc(F)cc1F", "organism": "Candidozyma auris", "assay": "broth microdilution", "system": "CBS 15108", "setting": "24 h", "MIC": "> 400 µM"}
